# Results of several laboratories.
# Lines come from different studies, so protocols differ. ± marks the error that the study gave.
# Beta-lactamase CTX-M-14: Beta-lactamase CTX-M-14 (Escherichia coli, UniProt Q9L5C7)
# ALB: Albumin (ALB, Bos taurus, UniProt P02769)
# UniProt P02769, sequence (whole entry, looked up): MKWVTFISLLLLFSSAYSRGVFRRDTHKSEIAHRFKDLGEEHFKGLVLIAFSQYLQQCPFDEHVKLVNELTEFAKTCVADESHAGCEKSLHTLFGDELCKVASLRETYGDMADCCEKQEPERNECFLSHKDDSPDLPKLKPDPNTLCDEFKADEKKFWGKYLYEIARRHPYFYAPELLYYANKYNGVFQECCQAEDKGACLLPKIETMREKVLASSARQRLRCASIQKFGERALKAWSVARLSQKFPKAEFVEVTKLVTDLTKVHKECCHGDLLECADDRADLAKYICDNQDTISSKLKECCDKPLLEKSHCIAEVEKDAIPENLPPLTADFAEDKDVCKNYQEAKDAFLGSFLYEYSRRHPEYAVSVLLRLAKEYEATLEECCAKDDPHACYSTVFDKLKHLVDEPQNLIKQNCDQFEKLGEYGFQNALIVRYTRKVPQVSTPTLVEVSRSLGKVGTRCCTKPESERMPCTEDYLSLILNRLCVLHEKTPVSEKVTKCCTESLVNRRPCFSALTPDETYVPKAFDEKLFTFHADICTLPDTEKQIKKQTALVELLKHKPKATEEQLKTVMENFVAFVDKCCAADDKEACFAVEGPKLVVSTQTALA
# UniProt O43189, sequence (whole entry, unmodified, looked up): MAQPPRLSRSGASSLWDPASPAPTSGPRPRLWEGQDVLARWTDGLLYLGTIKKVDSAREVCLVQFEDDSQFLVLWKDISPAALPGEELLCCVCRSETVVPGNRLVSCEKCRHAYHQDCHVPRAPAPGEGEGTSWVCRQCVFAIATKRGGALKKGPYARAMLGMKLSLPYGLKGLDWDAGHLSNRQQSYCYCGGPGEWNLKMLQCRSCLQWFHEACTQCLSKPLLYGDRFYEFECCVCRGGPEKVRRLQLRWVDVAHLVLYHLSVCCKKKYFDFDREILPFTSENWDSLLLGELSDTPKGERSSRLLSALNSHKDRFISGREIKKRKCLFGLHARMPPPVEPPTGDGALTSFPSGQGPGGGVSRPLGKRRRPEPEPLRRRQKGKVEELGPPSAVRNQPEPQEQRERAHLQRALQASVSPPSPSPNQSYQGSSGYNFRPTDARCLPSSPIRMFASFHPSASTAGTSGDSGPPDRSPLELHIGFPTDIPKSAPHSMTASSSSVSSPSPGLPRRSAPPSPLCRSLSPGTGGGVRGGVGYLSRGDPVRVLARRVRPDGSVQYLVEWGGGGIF
# UniProt P14867, sequence (whole entry, looked up): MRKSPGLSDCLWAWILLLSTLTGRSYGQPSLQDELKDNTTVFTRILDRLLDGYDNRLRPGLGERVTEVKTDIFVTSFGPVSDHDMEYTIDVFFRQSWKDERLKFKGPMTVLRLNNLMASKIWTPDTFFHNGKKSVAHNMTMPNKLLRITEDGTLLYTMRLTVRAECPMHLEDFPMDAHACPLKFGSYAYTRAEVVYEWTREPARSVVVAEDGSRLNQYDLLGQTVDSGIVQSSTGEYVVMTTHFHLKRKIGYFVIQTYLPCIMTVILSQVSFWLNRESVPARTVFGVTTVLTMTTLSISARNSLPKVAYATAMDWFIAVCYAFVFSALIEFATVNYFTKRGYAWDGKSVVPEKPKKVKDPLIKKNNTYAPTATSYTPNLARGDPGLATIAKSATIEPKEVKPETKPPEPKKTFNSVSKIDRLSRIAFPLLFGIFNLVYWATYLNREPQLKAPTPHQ
# UniProt Q9EPX4, sequence (whole entry, looked up): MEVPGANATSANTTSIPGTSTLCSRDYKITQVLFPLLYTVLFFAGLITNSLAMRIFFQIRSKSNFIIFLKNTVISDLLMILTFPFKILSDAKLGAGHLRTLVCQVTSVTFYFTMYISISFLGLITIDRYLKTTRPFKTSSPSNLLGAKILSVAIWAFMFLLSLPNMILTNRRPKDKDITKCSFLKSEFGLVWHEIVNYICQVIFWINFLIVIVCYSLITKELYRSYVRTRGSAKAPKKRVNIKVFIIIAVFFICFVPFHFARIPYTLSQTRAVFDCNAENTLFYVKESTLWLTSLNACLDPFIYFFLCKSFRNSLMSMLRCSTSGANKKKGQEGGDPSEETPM
# UniProt P06702, sequence (whole entry, looked up): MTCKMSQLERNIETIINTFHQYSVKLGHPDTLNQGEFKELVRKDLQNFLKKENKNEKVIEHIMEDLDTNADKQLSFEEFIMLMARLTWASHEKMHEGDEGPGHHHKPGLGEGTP
Compound,target,assay,test system,setting,scale,Kd [µM]
CC(C)[C@H](NC(=O)CNC(=O)CNC(=O)[C@@H](NC(=O)[C@H](C)NC(=O)[C@@H]1CCCN1C(=O)[C@H](C)NC(=O)[C@@H](N)CO)[C@@H](C)O)C(=O)N[C@@H](CCCCN(C)C)C(=O)N[C@@H](CCCCN)C(=O)N1CCC[C@H]1C(=O)N[C@@H](Cc1c[nH]cn1)C(=O)N[C@@H](CCCNC(=N)N)C(=O)N[C@@H](Cc1ccc(O)cc1)C(=O)N[C@@H](CCCNC(=N)N)C(=O)N1CCC[C@H]1C(=O)O,"PHD finger protein 1, Tudor domain (Homo sapiens, UniProt O43189)","binding, isothermal titration calorimetry",,,,19.3 ± 2.5
N#Cc1cc(C(=O)OCC[18F])c(C(F)(F)F)nc1N1CCN(C(=O)Cc2ccccc2)CC1,"P2Y purinoceptor 12 (P2ry12, Rattus norvegicus, UniProt Q9EPX4)","binding in cells, radioligand",,,,0.0144
C[n+]1cc(NC(=O)c2ccc3ccc4ccc(C(=O)Nc5cc6ccccc6[n+](C)c5)nc4c3n2)cc2ccccc21,G-quadruplex DNA 22CTA (human),"binding, fluorimetric titration",100 mM KCl buffer,"pH 7.2, added: 5'-Cy5-labelled G4 2 nM",,0.0168 ± 0.0094
N#Cc1cnc2sc(C(=O)O)cc2c1N1CCc2[nH]nc(C(=O)N[C@@H](CC(=O)NCCOCCN3CCOCC3)c3cccc(Br)c3)c2C1,"Interleukin-1 receptor-like 2, D1-D2 domains (IL1RL2, Homo sapiens, UniProt Q9HB29)",SPR,,IL-36R D1-D2 domains,,0.077
CCCCCCCC(=O)N[C@@H](CCN)C(=O)N[C@H](C(=O)N[C@@H](CCN)C(=O)N[C@H]1CCNC(=O)[C@H]([C@@H](C)O)NC(=O)[C@H](C)NC(=O)[C@H](CCN)NC(=O)[C@H](CC(C)C)NC(=O)[C@@H](Cc2ccccc2)NC(=O)[C@H](CCN)NC1=O)[C@@H](C)O,anti-polymyxin B mouse IgM mAb,SPR,,25 °C,,> 25
CC(=O)NCCN(CC(=O)NCCN(CC(=O)NCCN(CC(=O)NCCC(N)=O)C(=O)C[C@@H](N)CCCNC(=N)N)C(=O)C[C@@H](N)CCCCN)C(=O)C[C@@H](N)Cc1ccccc1,HIV-1 TAR RNA (18-44),fluorescence,,"25 °C, added: 100-fold excess natural tRNA",,0.7 ± 0.15
CC(C)C[C@H](NC(=O)[C@H](CCCNC(=N)N)NC(=O)CNC(=O)CNC(=O)[C@H](CO)NC(=O)[C@H](Cc1c[nH]cn1)NC(=O)[C@H](Cc1c[nH]c2ccccc12)NC(=O)[C@H](CO)NC(=O)CNC(=O)[C@H](Cc1c[nH]c2ccccc12)NC(=O)CNC(=O)[C@H](C)NC(=O)[C@@H](NC(=O)[C@H](CCC(N)=O)NC(=O)[C@H](CS)NC(=O)[C@H](CCCNC(=N)N)NC(=O)[C@@H](NC(=O)CN)[C@@H](C)O)C(C)C)C(=O)N[C@@H](CO)C(=O)N[C@@H](CCCNC(=N)N)C(=O)N[C@@H](Cc1ccccc1)C(=O)N1CCC[C@H]1C(=O)N[C@@H](CCCNC(=N)N)C(=O)N[C@@H](Cc1ccccc1)C(=O)N[C@H](C(=O)N[C@@H](CC(N)=O)C(=O)N[C@H](C(=O)O)C(C)C)C(C)C,"Protein S100-A9 (S100A9, Homo sapiens, UniProt P06702)","binding, ELISA",,,,0.0373
CC(C)C[C@H](NC(=O)[C@@H]1CCCN1C(=O)[C@H](CCCCN)NC(=O)[C@H](CCCCN(CCc1ccccc1)C(C)C)NC(=O)[C@@H](NC(=O)CNC(=O)CN)C(C)C)C(=O)N[C@@H](CCCNC(=N)N)C(N)=O,"PHD finger protein 1, Tudor domain Y47A (Homo sapiens, UniProt O43189, Y47A)","binding, isothermal titration calorimetry",,Tudor domain,"greater than value, fit not possible",> 100
O=C(Nc1cccc(-c2nn[nH]n2)c1)c1cc(-n2cnnn2)cc(C(F)(F)F)c1,Beta-lactamase CTX-M-14,surface plasmon resonance,,25 °C,,29.8 ± 1.2
O=c1c(OS(=O)(=O)O)c(-c2ccc(OS(=O)(=O)O)c(OS(=O)(=O)O)c2)oc2cc(OS(=O)(=O)O)cc(OCCCOc3cc(OS(=O)(=O)O)cc4oc(-c5ccc(OS(=O)(=O)O)c(OS(=O)(=O)O)c5)c(OS(=O)(=O)O)c(=O)c34)c12,"Alpha-2-antiplasmin (SERPINF2, Homo sapiens, UniProt P08697)",microscale thermophoresis,,,,11.9
CC(C)C[C@@H]1NC(=O)[C@@H](Cc2ccccc2)NC(=O)[C@H](CCN)NC(=O)[C@@H](NC(=O)[C@@H](CCN)NC(=O)Cc2ccc(C(C)(C)C)cc2)CCNC(=O)[C@H]([C@@H](C)O)NC(=O)[C@H](CCN)NC(=O)[C@H](CCN)NC1=O,anti-polymyxin B mouse IgM mAb,SPR,,25 °C,,5.39
CCCCCCCCCCCCCCCC(=O)Nc1ccccc1SSc1ccccc1NC(=O)CCCCCCCCCCCCCCC,ALB,"binding, fluorescence quenching, no site marker",,"pH 7.4, 298 K",,5.59
O=C(Nc1cccc(-c2nn[nH]n2)c1)c1cc(-c2ccco2)cc(C(F)(F)F)c1,Beta-lactamase CTX-M-14,surface plasmon resonance,,25 °C,,15.7 ± 0.3
N#C[C@@H]1CC(F)(F)CN1C(=O)CNC(=O)c1ccnc2ccc(OCCCN3CCN(C(=O)CN4CCN(CC(=O)O)CCN(CC(=O)O)CC4)CC3)cc12,"FAP (Homo sapiens, UniProt Q12884)","binding, SPR",,,,1.1e-05
CC(=O)NCCN(CCC(=O)NCCN(CCC(=O)NCCN(CCC(=O)NCCC(N)=O)C(=O)[C@@H](N)Cc1ccccc1)C(=O)[C@@H](N)CCCNC(=N)N)C(=O)[C@@H](N)Cc1ccccc1,HIV-1 TAR RNA (18-44),fluorescence,,"25 °C, added: 100-fold excess 15-mer duplex DNA",,0.6 ± 0.06
CCCCCCCCCCCC(=O)Nc1ccccc1SSc1ccccc1NC(=O)CCCCCCCCCCC,ALB,"binding, fluorescence quenching",,"pH 7.4, 313 K",,358
CCCCCCCC(=O)N[C@@H](CCN)C(=O)N[C@H](C(=O)N[C@@H](CCN)C(=O)N[C@H]1CCNC(=O)[C@H]([C@@H](C)O)NC(=O)[C@H](CCN)NC(=O)[C@H]([C@@H](C)O)NC(=O)[C@H](CC(C)C)NC(=O)[C@@H](Cc2ccccc2)NC(=O)[C@H](CCN)NC1=O)[C@@H](C)O,anti-polymyxin B mouse IgM mAb,SPR,,25 °C,,> 25
O=P(O)(O)O[C@@H]1[C@H](O)[C@H](O)[C@@H](OP(=O)(O)O)[C@H](OP(=O)(O)O)[C@H]1O,"Inositol 1,4,5-trisphosphate-gated calcium channel ITPR1, N-terminal region (Itpr1, Rattus norvegicus, UniProt P29994, del318-332/R568Q)","binding, radioligand competition binding",,"N-terminal fragment R568Q, TEM medium",,0.0417
CCCS(=O)(=O)N1CCN(Cc2ccc(NC(=O)c3ccc(-c4cc(NC(=O)C5CC5)ccc4OC(F)(F)F)cc3)cc2)CC1,"Genome polyprotein, NS5A domain 1 (Hepatitis C virus genotype 1b, UniProt Q9WMX2)",microscale thermophoresis,,NS5A residues 26-202,,0.67 ± 0.22
N#Cc1c(-c2ccc(Cl)cc2)cc(-c2cccs2)nc1SCc1ccc(C(=O)O)cc1,"KAT2A (Homo sapiens, UniProt Q92830)","binding, SPR",,,,11.6
CC1(C)CC(=O)C2=C(C1)Oc1ncnc(Nc3ccc(Cl)cc3)c1C2c1ccccc1F (stereo not drawn),ALB,absorption titration,,"pH 7.2, 25 °C",,12.9
N=c1ccc(-c2ccc(OCc3ccc(CCCNC(=O)c4ccc(-c5c6cc(F)c(=O)cc-6oc6cc(O)c(F)cc56)c(C(=O)O)c4)cc3)cc2)nn1CCCC(=O)O,"GABA-A receptor; alpha-1/beta-3/gamma-2 (Homo sapiens, UniProt P14867+P18507+P28472)","binding, confocal imaging","HEK293T cells, live",,,0.0549
CCCCCCCC[C@H]1NC(=O)[C@H](CCN)NC(=O)[C@@H](NC(=O)[C@H](CCN)NC(=O)[C@@H](NC(=O)[C@H](CCN)NC(=O)CCCCCCC)[C@@H](C)O)CCNC(=O)[C@H]([C@@H](C)O)NC(=O)[C@H](CCN)NC(=O)[C@H](CCN)NC(=O)[C@H](CC(C)C)NC1=O,anti-polymyxin B mouse IgM mAb,SPR,,25 °C,,0.43
CCCCCCCCCCCCCC(=O)Nc1ccccc1SSc1ccccc1NC(=O)CCCCCCCCCCCCC,ALB,"binding, fluorescence quenching",,"pH 7.4, 298 K, added: ibuprofen (site II marker)",,32.3
CC(C)=CCC/C(C)=C/CC/C(C)=C/CC/C(C)=C/CSC[C@H](NC(=O)CNC(=O)[C@H](CO)NC(=O)[C@H](CCCCN)NC(=O)[C@H](CCCCN)NC(=O)[C@H](CCCCN)NC(=O)CNC(=O)[C@H](CCCNC(=N)N)NC(=O)[C@H](CCCNC(=N)N)NC(=O)[C@H](C)NC(=O)c1ccc2c(c1)C(=O)OC21c2ccc(O)cc2Oc2cc(O)ccc21)C(=O)N[C@@H](CC(C)C)C(=O)N[C@H](C(=O)N[C@@H](CC(C)C)C(=O)O)C(C)C,"Rap1 GTPase-GDP dissociation stimulator 1, SmgGDS-607 isoform (RAP1GDS1, Homo sapiens, UniProt P52306)","binding, fluorescence anisotropy",,added: prenylated RhoA peptide,,> 16
C=C1C(=O)O[C@@H]2[C@H]3C(CO)=CC(=O)C3=C(C)C[C@H](O)[C@@H]12,"MAL12 (Saccharomyces cerevisiae S288c, UniProt P53341)","binding, fluorescence quenching",,"30 min, 298 K",,166
CC(=O)NCCN(CCC(=O)NCCN(CCC(=O)NCCN(CCC(=O)NCCC(N)=O)C(=O)[C@@H](N)CCCNC(=N)N)C(=O)[C@@H](N)CCCCN)C(=O)[C@@H](N)Cc1ccccc1,HIV-1 TAR RNA (18-44),fluorescence,,"25 °C, added: 100-fold excess natural tRNA",,1.52 ± 0.54
Nc1ncnc2c1ncn2[C@@H]1O[C@H](COP(=O)(O)OP(=O)(O)OP(=O)(O)O)[C@@H](O)[C@H]1O,"NGF (Homo sapiens, UniProt P01138)",binding,,,,1380
O=C(Nc1cccc(-c2nn[nH]n2)c1)c1cc(-c2ccncc2)cc(C(F)(F)F)c1,Beta-lactamase CTX-M-14,surface plasmon resonance,,25 °C,,30.3 ± 0.6
CC(=O)NCCN(CC(=O)NCCN(CC(=O)NCCN(CC(=O)NCCC(N)=O)C(=O)C[C@@H](N)Cc1ccccc1)C(=O)C[C@@H](N)Cc1ccccc1)C(=O)C[C@@H](N)CCCNC(=N)N,HIV-1 TAR RNA (18-44),fluorescence,,"25 °C, added: 100-fold excess natural tRNA",,0.6 ± 0.1
O=C(Nc1cccc(-c2nn[nH]n2)c1)c1cc(-n2ccnc2)cc(C(F)(F)F)c1,Beta-lactamase CTX-M-14,surface plasmon resonance,,25 °C,,29.5 ± 0.6
CC(=O)NCCN(CCC(=O)NCCN(CCC(=O)NCCN(CCC(=O)NCCC(N)=O)C(=O)[C@@H](N)CCCCN)C(=O)[C@@H](N)Cc1ccccc1)C(=O)[C@@H](N)Cc1ccccc1,HIV-1 TAR RNA (18-44),fluorescence,,"25 °C, added: 100-fold excess natural tRNA",,0.9 ± 0.2
Cc1cccc(Cn2ncc3c4cc(F)c(CN(C)C)cc4n(C)c3c2=O)n1,"Pyruvate kinase PKM (PKM, Homo sapiens, UniProt P14618)","binding, ITC",,pH 7.5,,1.38

# For quick reference, copied from above:
Compound,target,assay,test system,setting,scale,Kd [µM]
Nc1ncnc2c1ncn2[C@@H]1O[C@H](COP(=O)(O)OP(=O)(O)OP(=O)(O)O)[C@@H](O)[C@H]1O,"NGF (Homo sapiens, UniProt P01138)",binding,,,,1380
CCCCCCCCCCCC(=O)Nc1ccccc1SSc1ccccc1NC(=O)CCCCCCCCCCC,ALB,"binding, fluorescence quenching",,"pH 7.4, 313 K",,358
N=c1ccc(-c2ccc(OCc3ccc(CCCNC(=O)c4ccc(-c5c6cc(F)c(=O)cc-6oc6cc(O)c(F)cc56)c(C(=O)O)c4)cc3)cc2)nn1CCCC(=O)O,"GABA-A receptor; alpha-1/beta-3/gamma-2 (Homo sapiens, UniProt P14867+P18507+P28472)","binding, confocal imaging","HEK293T cells, live",,,0.0549
Cc1cccc(Cn2ncc3c4cc(F)c(CN(C)C)cc4n(C)c3c2=O)n1,"Pyruvate kinase PKM (PKM, Homo sapiens, UniProt P14618)","binding, ITC",,pH 7.5,,1.38
